Experimental data pooled from the literature.
A part holds a random share of what one study measured.
Sequence of UniProt Q8IYT8 (whole entry, looked up): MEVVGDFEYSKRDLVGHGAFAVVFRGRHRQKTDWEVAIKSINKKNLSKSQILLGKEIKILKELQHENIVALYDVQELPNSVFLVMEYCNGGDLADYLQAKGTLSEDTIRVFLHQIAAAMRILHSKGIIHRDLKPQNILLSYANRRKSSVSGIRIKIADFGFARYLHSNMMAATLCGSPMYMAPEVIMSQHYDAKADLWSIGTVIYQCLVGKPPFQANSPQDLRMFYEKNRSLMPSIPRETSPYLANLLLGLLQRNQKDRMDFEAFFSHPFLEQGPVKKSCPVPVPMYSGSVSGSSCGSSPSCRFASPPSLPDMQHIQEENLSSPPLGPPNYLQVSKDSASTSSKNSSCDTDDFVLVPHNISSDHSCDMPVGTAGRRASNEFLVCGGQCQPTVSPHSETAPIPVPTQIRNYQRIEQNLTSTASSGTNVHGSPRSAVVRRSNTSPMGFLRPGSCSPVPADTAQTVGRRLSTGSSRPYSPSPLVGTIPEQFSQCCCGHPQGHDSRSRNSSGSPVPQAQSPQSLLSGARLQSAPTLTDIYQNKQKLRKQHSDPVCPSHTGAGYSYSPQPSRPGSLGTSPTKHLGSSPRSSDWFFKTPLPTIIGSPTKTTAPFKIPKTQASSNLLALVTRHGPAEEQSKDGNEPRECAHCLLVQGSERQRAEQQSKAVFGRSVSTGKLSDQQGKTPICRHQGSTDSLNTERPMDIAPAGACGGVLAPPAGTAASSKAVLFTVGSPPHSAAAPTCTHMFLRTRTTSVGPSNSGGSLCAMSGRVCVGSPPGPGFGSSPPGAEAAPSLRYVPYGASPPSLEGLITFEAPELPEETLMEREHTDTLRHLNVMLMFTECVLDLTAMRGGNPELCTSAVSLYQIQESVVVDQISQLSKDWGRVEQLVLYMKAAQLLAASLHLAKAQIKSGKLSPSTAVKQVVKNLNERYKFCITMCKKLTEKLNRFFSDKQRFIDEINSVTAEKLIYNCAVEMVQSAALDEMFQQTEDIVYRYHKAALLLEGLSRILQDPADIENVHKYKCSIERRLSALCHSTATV
Sequence of UniProt P49841 (whole entry, looked up): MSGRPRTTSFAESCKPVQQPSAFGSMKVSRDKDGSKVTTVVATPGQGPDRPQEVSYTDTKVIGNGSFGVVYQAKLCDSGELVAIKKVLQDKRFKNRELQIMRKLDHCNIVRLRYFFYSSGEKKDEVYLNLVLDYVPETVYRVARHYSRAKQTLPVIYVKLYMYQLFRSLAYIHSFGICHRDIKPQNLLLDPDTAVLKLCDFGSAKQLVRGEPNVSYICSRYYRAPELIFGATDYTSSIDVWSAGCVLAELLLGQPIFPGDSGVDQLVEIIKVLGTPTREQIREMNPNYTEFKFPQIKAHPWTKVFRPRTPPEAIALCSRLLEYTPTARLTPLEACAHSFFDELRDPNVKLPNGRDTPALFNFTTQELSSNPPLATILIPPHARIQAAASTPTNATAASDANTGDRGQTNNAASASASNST
Sequence of UniProt P45983 (whole entry, looked up): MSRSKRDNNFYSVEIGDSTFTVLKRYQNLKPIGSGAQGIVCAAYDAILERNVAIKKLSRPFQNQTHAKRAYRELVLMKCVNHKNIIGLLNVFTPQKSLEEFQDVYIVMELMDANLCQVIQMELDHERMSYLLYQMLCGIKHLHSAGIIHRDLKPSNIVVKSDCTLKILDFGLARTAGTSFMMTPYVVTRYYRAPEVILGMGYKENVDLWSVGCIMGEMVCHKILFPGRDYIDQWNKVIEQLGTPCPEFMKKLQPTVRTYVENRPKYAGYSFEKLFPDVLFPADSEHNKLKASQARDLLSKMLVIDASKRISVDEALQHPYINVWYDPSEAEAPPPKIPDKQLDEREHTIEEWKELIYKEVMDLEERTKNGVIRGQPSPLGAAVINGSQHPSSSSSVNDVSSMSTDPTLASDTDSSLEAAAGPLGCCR
Sequence of UniProt Q9UHD2 (whole entry, looked up): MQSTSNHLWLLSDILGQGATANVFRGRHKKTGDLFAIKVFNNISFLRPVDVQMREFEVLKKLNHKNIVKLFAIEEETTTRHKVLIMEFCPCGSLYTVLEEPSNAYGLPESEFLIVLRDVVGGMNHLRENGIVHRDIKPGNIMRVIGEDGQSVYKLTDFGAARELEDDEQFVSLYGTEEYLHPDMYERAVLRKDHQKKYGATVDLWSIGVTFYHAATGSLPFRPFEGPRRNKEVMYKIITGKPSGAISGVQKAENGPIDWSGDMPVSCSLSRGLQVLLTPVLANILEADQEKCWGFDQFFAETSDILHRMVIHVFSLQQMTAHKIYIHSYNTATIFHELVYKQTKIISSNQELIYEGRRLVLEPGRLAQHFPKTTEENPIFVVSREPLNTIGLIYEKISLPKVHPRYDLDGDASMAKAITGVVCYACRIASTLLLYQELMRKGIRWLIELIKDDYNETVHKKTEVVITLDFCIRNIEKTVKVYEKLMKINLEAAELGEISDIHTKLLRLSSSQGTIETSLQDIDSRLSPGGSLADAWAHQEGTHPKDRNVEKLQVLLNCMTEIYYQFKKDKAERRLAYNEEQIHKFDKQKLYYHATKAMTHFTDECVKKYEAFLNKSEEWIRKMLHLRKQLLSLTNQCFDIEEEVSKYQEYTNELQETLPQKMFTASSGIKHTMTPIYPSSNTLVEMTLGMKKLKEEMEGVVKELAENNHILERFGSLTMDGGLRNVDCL
Sequence of UniProt P52333 (whole entry, looked up): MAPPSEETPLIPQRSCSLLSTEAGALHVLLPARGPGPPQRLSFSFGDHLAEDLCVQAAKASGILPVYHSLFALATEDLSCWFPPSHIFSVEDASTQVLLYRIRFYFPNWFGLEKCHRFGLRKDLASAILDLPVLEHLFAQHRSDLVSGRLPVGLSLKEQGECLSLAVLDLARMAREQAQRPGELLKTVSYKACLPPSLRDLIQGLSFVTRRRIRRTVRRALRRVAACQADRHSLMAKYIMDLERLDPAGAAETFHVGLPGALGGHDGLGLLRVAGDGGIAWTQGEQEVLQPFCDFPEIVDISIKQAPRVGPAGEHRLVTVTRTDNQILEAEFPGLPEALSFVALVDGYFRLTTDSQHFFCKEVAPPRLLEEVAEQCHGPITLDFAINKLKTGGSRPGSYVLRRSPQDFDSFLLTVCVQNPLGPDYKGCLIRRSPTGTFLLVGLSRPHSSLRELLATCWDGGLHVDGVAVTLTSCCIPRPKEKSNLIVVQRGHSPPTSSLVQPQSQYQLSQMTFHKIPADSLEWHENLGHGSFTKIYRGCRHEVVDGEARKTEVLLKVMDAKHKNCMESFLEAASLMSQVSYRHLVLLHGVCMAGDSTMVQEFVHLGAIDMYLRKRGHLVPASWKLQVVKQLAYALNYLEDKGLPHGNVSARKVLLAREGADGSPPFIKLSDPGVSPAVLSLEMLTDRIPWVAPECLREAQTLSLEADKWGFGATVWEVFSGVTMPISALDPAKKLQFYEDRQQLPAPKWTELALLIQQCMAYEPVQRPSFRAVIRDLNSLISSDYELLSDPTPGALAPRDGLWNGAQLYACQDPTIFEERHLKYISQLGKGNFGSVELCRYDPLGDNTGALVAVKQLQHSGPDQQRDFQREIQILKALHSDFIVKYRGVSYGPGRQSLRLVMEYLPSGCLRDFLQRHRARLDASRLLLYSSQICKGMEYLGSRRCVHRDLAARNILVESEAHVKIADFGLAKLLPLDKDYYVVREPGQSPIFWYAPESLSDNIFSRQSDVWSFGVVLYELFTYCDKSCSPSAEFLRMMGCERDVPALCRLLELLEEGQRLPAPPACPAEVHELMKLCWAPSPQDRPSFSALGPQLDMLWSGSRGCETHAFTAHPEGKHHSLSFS
Sequence of UniProt Q07002 (whole entry, looked up): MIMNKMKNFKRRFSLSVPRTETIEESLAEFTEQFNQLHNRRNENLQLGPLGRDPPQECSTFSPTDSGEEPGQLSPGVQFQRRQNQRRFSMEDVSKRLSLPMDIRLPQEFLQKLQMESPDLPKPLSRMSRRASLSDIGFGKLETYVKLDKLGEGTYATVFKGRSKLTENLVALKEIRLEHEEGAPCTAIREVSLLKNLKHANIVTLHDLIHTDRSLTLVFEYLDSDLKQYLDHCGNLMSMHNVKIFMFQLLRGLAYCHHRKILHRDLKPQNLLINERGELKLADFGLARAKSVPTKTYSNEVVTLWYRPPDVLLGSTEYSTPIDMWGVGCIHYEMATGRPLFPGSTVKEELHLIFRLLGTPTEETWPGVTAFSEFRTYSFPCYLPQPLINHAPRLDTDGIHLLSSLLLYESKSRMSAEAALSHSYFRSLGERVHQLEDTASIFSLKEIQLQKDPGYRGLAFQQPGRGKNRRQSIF
Sequence of UniProt Q8WTQ7 (whole entry, looked up): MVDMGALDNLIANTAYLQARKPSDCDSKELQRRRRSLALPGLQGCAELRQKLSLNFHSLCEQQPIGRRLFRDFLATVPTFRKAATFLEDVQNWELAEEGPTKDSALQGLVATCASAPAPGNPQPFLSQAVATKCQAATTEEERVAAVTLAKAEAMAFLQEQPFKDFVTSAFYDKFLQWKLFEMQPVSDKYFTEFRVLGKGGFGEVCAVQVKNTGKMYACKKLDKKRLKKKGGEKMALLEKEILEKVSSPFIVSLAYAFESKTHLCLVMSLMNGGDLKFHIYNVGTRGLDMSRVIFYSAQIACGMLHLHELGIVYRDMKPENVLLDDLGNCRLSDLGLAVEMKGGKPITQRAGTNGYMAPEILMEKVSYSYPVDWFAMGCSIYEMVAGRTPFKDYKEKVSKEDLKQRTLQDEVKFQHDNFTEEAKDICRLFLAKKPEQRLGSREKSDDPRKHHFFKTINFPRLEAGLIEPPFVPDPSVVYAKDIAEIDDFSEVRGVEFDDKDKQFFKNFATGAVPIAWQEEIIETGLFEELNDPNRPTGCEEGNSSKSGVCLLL

Set 1
SMILES: O=C(NC[C@@H]1[C@H]2CN(C(=O)OCc3cc(C(F)(F)F)cc(C(F)(F)F)c3)C[C@@H]12)c1ccc2[nH]nnc2c1
Effect on: cell-free assay
Method: competition with immobilised ligand
Tested at: 1 µM
Quantity: remaining binding
CDK18 (Homo sapiens, UniProt Q07002): 100%
MARK1 (Homo sapiens, UniProt Q9P0L2): 98%
NEK2 (Homo sapiens, UniProt P51955): 100%
PDGFRA (Homo sapiens, UniProt P16234): 97%
MAPK8 (Homo sapiens, UniProt P45983): 90%
PIP5K1C (Homo sapiens, UniProt O60331): 98%
MAPK1 (Homo sapiens, UniProt P28482): 100%
ZAP70 (Homo sapiens, UniProt P43403): 60%

Set 2
SMILES: c1cc(-c2cnn3cc(-c4ccc(OCCN5CCCCC5)cc4)cnc23)ccn1
Effect on: enzyme activity
Action: inhibitor
Tested at: 0.5 µM
Reference: control
Quantity: remaining activity
GSK3B (Homo sapiens, UniProt P49841): 79.6%
ULK2 (Homo sapiens, UniProt Q8IYT8): 72.3%
CSNK1G3 (Homo sapiens, UniProt Q9Y6M4): 86.3%
MERTK (Homo sapiens, UniProt Q12866): 82.2%
TBK1 (Homo sapiens, UniProt Q9UHD2): 57.2%
GRK7 (Homo sapiens, UniProt Q8WTQ7): 92.8%
MST1R (Homo sapiens, UniProt Q04912): 102%
NEK6 (Homo sapiens, UniProt Q9HC98): 109%
FRK (Homo sapiens, UniProt P42685): 66.5%
MAP3K5 (Homo sapiens, UniProt Q99683): 98.4%
FGFR1 (Homo sapiens, UniProt P11362): 59.9%
CSNK1G2 (Homo sapiens, UniProt P78368): 74.4%
JAK3 (Homo sapiens, UniProt P52333): 97.7%

Set 3
Target: Phosphate system positive regulatory protein PHO4, full length, GST-tagged (PHO4, Saccharomyces cerevisiae, UniProt P07270, residues 1-312)
Method: competition protein-binding microarray
Molecule type: double-stranded DNA, one strand shown
Medium: in vitro
Tested at: 2 µM
Setting: whole 60-bp probe, lowest competitor level
Added: Cbf1 competitor, 0.05 µM
Direction: higher = stronger binding
Quantity: fluorescence intensity
All sequences stand within: … GTCTTGATTCGCTTGACGCTGCTG
Target sequence (chain): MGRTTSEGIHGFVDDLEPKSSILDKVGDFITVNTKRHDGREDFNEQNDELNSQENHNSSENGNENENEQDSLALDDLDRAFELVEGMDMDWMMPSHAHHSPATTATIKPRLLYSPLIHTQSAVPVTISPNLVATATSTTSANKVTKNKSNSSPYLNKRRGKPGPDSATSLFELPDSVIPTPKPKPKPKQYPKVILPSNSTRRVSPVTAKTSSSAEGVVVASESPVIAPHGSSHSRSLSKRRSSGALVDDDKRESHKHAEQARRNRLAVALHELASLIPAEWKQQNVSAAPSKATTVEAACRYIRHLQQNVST
AAAGCGGTAATTTGTTTCGTGGGTGCAGATATCTAT: 5270 a.u.
TTGGTATTTGCCATGCAGGTGATAGTGTTATGGGTT: 7030 a.u.
CTTCTGTAAATTTGAAGTGTGGGTGGACGCGCCCCG: 4910 a.u.
GCGGTCCCTTCTTCGGGCGTGATGGGCCGCTTTGGC: 3870 a.u.
AAATTACTAAGTTGTCACTGCACTTACCCCGTATGA: 4020 a.u.
TCTCCCAAAATTTCACACGTGATGGGATGATTTTGG: 15600 a.u.
CTACTGGAGATGCAGGTCGTGATGGACTTTTAGCTT: 5720 a.u.
CGCGAACATCGGTCCCACGCTGATAGTCTCCACTAT: 7460 a.u.

Set 4
Target: Histone acetyltransferase KAT6A, winged helix 1, GST fusion (KAT6A, Homo sapiens, UniProt Q92794, residues 1-85)
Method: protein binding microarray
Molecule type: double-stranded DNA, one strand shown
Medium: in vitro
Tested at: not given
Setting: 8-mer, flanks averaged, mean of 2 arrays, mostly near background
Reference: not given
Direction: higher = stronger binding
Quantity: E-score
Target sequence (chain): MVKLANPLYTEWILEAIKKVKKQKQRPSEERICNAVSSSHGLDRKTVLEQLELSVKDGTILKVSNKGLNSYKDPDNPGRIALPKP
GGAGTTCA: -0.0627
CAGCGCAA: 0.172
ACTAACAG: -0.0494
TTAATCAA: -0.161
CGGATCCG: 0.338
GCCCCTAC: -0.0183
CTCAATGA: -0.183
AGTCACAG: -0.186
